Published values collected from several papers.
Numbered parts are unrelated; each lists some results of a single study. Changes are numbered by the printed parent chain.

Study 1 — technique: RNA Bind-n-Seq; molecule type: RNA; matrix: in vitro; concentration: 200 nM; notes: whole 134-nt RNA, ends assumed; with: 150 mM LiCl; baseline: input library; reading: higher = stronger binding; library: 7-deaza-guanosine replaces G
Target: Ras GTPase-activating protein-binding protein 1, full length (G3BP1, Homo sapiens, UniProt Q13283)
Sequence of UniProt Q13283 (whole entry, looked up): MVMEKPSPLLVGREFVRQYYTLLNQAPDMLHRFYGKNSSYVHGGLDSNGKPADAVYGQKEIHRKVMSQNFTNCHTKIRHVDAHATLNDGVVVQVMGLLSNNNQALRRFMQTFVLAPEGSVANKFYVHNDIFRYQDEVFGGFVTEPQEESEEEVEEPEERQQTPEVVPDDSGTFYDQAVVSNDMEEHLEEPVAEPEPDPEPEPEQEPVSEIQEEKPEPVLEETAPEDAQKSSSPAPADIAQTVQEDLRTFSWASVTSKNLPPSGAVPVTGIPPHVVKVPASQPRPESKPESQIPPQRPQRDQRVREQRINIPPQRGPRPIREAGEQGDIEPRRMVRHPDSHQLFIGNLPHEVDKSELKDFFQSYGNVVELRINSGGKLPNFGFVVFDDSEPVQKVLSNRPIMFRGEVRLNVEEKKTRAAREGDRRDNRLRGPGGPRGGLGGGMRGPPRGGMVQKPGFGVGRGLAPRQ
Shared flanks, not repeated: GGGAGUUCUACAGUCCGACGAUC … UGGAAUUCUCGGGUGUCAAGG
| Sequence | log2 enrichment |
| --- | --- |
| GCAGGAAGUAAAAACAAAUGGAAAUGCUUCGGAUAGUGGCAGGGGUGGGGGUUGCUAAGGAAAGGGUGGGAUGGGAGUGGGUAAAGAGCU | 0.236 |
| ACCAUGCAGGUGGGCAUCUUUGGGAAGAGGGGCAAGGGGGGGAUAGGGAGGGGGGUAACACUUUGGGAACAGGUGGUCCCAGGUCGUUUC | 0.0794 |
| AGUCCUGUGCUACACAUCGUAUGUACCGAAUCGGGAAAAGGAAAAGGGGAAAAGGGGAAAGUAUUAUGUUACGCCGUUCGGAUCUGCACU | -0.563 |
| ACCAUGCAGGUGGGCAUCUUUGGGAAGUGGGGAAAGGGGGGGAUAGGGAGGGGGGUAACACUUUGGGAACAGGUGGUCCCAGGUCGUUUC | 0.212 |
| AGUCCUGUGCUACACAUCGUAUGUACCGAAUCGGGCCCCCGGCCCCCGGCCCCCGGGAAAGUAUUAUGUUACGCCGUUCGGAUCUGCACU | -0.443 |
| GCUCGCCCGAGCUCAGAGGUGAUCAAAGACGCCAACUUGUACAUCAGCGGGCUCCCGCGGACCAUGACCCAGAAGGACGUAGAAGACAUG | -1.47 |

Study 2 — target: UBE2G1 UBC core domain (UniProt P62253); technique: yeast two-hybrid; matrix: yeast; notes: mostly zero background; baseline: not given; reading: higher = stronger interaction
B1: RNF183 RING domain (UniProt Q96D59); chain EQQGRELEAECPVCWNPFNNTFHTPKMLDCCHSFCVECLAHLSLVTPARRRLLCPLCRQPTVLASGQP
B2: MEX3B RING domain (UniProt Q6ZN04); chain SGLRRKGSRDCSVCFESEVIAALVPCGHNLFCMECANRICEKSEPECPVCHTAVTQAIRIF
B3: ANAPC11 RING domain (UniProt Q9NYG5); chain GICRMAFNGCCPDCKVPGDDCPLVWGQCSHCFHMHCILKWLHAQQVQQHCPMCRQEWKFKE
B4: RNF152 RING domain (UniProt Q8N8N0); chain ETLSQDSLLECQICFNYYSPRRRPKLLDCKHTCCSVCLQQMRTSQKDVRCPWCRGVTKLPPGFS
B5: DEF8 RING domain (UniProt Q6ZN54); chain AGRLGCSLTEIHTLFAKHIKLDCERCQAKGFVCELCREGDVLFPFDSHTSVCADCSAVFHRDCYYDNSTTCPKCARLSLRK
B6: RNF31 RING domain (UniProt Q96EP0); chain AFLRRLLAQECAVCGWALPHNRMQALTSCECTICPDCFRQHFTIALKEKHITDMVCPACGRPDLTDDTQLL
Residues (chain): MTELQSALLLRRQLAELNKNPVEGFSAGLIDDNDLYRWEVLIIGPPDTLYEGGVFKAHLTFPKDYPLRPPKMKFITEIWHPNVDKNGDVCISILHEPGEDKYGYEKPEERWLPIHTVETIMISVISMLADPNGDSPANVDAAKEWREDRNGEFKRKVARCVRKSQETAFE
| Molecule | lacZ reporter activity |
| --- | --- |
| B1 (RNF183 RING domain) | 0 |
| YPEEVDDDLICHICLQALLDPLDTPCGHTYCTLCLTNFLVEKDFCPMDRKPLVLQHCKK (LNX1 RING domain (UniProt Q8TBB1)) | 0 |
| B2 (MEX3B RING domain) | 0 |
| B3 (ANAPC11 RING domain) | 0 |
| B4 (RNF152 RING domain) | 0 |
| B5 (DEF8 RING domain) | 0 |
| B6 (RNF31 RING domain) | 0 |

Study 3 — technique: DHFR PCA, deep sequencing; matrix: yeast; with: (+)-ABA 0.0091 µM; baseline: wild-type fitted maximum; reading: higher = stronger binding
Target: ABI1, truncated, D143A, DHFR fusion (Arabidopsis thaliana)
Notes: methotrexate growth selection, single substitutions
Starting sequence: PYL1, truncated, DHFR fusion (Arabidopsis thaliana); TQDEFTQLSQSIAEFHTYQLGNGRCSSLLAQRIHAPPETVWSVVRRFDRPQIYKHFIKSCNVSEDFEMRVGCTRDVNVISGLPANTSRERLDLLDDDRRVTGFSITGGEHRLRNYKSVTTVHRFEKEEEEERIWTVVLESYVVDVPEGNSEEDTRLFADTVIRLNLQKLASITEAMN
| Variant | relative binding score [%] |
| --- | --- |
| K54Y | -7.59 |
| G148W | 4.7 |
| P36W | 3.53 |
| H16P | 1.25 |
| Q167T | 4.37 |
| R123N | 6.48 |
| T120L | -8.11 |
| L28T | 3.13 |
| M68Q | -3.33 |
| V100R | 0.077 |
| D96R | -4.09 |
| D48I | 4.8 |

Single results of other studies — technique: nitrocellulose filter binding; molecule type: RNA; matrix: in vitro; concentration: 100 nM; baseline: round 9 selected pool; reading: higher = stronger binding
Target: SMN1, full length (human, UniProt Q16637, residues 1-294)
Sequence of UniProt Q16637 (whole entry, looked up): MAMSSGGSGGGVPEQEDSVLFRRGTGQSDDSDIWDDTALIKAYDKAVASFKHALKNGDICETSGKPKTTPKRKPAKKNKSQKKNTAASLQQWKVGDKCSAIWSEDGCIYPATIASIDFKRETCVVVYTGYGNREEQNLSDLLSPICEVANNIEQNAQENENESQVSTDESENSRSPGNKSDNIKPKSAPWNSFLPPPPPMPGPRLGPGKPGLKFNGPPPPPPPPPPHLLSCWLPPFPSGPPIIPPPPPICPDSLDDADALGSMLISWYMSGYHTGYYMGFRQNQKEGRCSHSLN
Notes: whole RNA, constant flanks, single concentration, ends assumed
| Sequence | relative RNA binding |
| --- | --- |
| GGGCUCACCACGCACGUGCGCGCUAAGUGAGGAUCGGUGCCCUCACCACGGCAAGCU | 34 % of pool |
| GGGCUCACCACGCACGUGGUAAUUGUCUAUGGUGAUUGGGCCUCACCACGGCAAGCU | 15 % of pool |

Excerpt of the above (study 1):
| Sequence | log2 enrichment |
| --- | --- |
| ACCAUGCAGGUGGGCAUCUUUGGGAAGUGGGGAAAGGGGGGGAUAGGGAGGGGGGUAACACUUUGGGAACAGGUGGUCCCAGGUCGUUUC | 0.212 |
| AGUCCUGUGCUACACAUCGUAUGUACCGAAUCGGGCCCCCGGCCCCCGGCCCCCGGGAAAGUAUUAUGUUACGCCGUUCGGAUCUGCACU | -0.443 |
